# Published values of several laboratories.
# Each line is one published result; not all experiments were run side by side. ± marks the error that the study gave.
# Chain of UniProt P17812 (whole entry, looked up): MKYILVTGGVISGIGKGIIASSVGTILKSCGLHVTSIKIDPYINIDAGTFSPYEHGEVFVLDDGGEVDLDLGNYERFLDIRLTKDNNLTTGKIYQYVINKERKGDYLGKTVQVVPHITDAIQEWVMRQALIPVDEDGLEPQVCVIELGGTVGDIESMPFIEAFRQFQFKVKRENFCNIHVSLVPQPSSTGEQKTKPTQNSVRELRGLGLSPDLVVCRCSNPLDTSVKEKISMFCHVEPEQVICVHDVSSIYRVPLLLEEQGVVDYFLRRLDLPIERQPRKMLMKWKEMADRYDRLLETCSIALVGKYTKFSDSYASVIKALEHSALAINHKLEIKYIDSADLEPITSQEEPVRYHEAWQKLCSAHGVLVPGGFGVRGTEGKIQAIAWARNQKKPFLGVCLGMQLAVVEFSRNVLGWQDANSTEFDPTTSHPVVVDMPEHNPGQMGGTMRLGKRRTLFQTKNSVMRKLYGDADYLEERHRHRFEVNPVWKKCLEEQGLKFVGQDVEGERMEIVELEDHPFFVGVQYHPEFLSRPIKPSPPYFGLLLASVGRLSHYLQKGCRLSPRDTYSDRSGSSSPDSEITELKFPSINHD
# Chain of UniProt P41595 (whole entry, looked up): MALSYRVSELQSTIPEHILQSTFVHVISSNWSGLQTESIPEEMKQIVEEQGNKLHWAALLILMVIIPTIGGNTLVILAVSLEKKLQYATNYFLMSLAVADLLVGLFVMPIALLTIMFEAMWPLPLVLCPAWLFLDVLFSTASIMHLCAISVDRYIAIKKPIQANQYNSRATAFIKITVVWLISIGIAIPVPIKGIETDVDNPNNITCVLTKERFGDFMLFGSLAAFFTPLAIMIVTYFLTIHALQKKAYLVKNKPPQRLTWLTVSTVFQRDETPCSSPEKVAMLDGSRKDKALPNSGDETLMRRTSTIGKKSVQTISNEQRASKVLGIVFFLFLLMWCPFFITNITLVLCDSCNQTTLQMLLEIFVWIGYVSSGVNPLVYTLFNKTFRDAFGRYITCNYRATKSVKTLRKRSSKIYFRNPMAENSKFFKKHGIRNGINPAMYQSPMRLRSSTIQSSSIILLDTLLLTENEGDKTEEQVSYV
# Chain of UniProt P51955 (whole entry, looked up): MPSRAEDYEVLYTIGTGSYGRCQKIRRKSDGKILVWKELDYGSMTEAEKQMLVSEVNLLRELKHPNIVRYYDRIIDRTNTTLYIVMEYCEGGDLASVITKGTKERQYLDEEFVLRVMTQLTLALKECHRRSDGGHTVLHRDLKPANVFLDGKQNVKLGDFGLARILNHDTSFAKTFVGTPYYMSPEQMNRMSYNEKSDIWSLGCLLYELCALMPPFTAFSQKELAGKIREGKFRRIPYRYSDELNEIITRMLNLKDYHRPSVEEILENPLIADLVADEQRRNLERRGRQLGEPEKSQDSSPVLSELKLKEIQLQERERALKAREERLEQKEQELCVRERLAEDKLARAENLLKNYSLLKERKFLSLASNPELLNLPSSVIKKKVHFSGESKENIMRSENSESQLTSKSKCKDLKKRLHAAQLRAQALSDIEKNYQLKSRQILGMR
SMILES,tested on,test,system,conditions,scale,endpoint,result
CN(N=O)c1ccc(F)cc1,Escherichia coli,"mutagenicity, Ames plate incorporation",WP2 uvrA pKM101,"500 µg/plate, 3 d, without S9, methanol",,revertant colonies per plate,104 ± 9
N.N.O=C([O-])C1(C(=O)[O-])CCC1.[Pt+2],,item: non-protein-bound platinum,"human, plasma ultrafiltrate","target AUC 3, from 0, median, Bayesian estimate",,AUC to infinity,38300 ng·h/mL
CO[C@H]1C[C@@H]2CC[C@@H](C)[C@@](O)(O2)C(=O)C(=O)N2CCCC[C@H]2C(=O)O[C@H]([C@H](C)C[C@@H]2CC[C@@H](OC(=O)NCCOCCOCCOCCOCCOCCOCCOCCOCCC(=O)N3CCc4cc(Cn5nc(-c6ccc7oc(N)nc7c6)c6c(N)ncnc65)ccc4C3)[C@H](OC)C2)C[C@@H](O)[C@H](C)/C=C(\C)[C@@H](O)[C@@H](OC)C(=O)[C@H](C)C[C@H](C)/C=C/C=C/C=C/1C,,"phase 1 dose escalation, item: vomiting",advanced solid tumour patients,"intravenous, 8 mg weekly, grade ≥3",,TRAE incidence,0%
Cn1cncc1-c1c(F)cncc1NC(=O)c1c(N)nn2cc(F)cnc12,,,human patients,"oral, 270 mg once daily",,grade ≥3 anaemia incidence,50%
COc1cc2c(Oc3ccc4[nH]c(C)cc4c3F)ccnc2cc1OCC1(N)CC1,,,paediatric recurrent refractory sarcoma,12 mg,,grade 1 or 2 ALP elevation,45.5%
CC[C@H](C)[C@@H]1NC(=O)[C@@H]2CCCN2C(=O)[C@H](CC(C)C)NC(=O)[C@H](CC(C)C)NC(=O)CNC(=O)[C@@H](NC(=O)[C@@H](NC(=O)[C@H](CC(=O)O)NC(=O)CNC(=O)[C@@H](NC(=O)[C@H](C)NC(=O)CNC(=O)[C@H](CCCCN)NC(=O)[C@H](CC(C)C)NC(=O)[C@H](CC(C)C)NC(=O)[C@H](CCCCN)NC(=O)CNC(=O)[C@@H](NC(=O)[C@@H](N)CC(C)C)C(C)C)C(C)C)C(C)C)CSSC[C@@H](C(=O)O)NC1=O,,"RNA-seq, item: Ier2","mouse, traumatic brain injury model, frontal cortex and hippocampus",dose not given,baseline: TBI alone,log2 fold change,-1.5
CN1CC[C@@H](c2c(O)cc(O)c3c(=O)cc(-c4ccc(C(F)(F)F)cc4Cl)oc23)[C@@H]1CO,,item: Hypertension,AML,"oral, 100 mg, intermittent dosing",,patients with adverse event,0%
CC[C@H](C)[C@H](NC(=O)[C@H](Cc1ccccc1)NC(=O)[C@H](CCC(=O)O)NC(=O)[C@H](CCCNC(=N)N)NC(=O)[C@H](C)NC(=O)[C@H](C)NC(=O)[C@H](CCC(N)=O)NC(=O)[C@H](CCC(=O)O)NC(=O)[C@H](CCC(=O)O)NC(=O)[C@H](CC(C)C)NC(=O)[C@H](Cc1ccc(O)cc1)NC(=O)[C@H](CO)NC(=O)[C@H](CO)NC(=O)[C@@H](NC(=O)[C@H](CC(=O)O)NC(=O)[C@H](CO)NC(=O)[C@@H](NC(=O)[C@H](Cc1ccccc1)NC(=O)[C@@H](NC(=O)CNC(=O)[C@H](CCC(=O)O)NC(=O)[C@H](C)NC(=O)CCc1c[nH]cn1)[C@@H](C)O)[C@@H](C)O)C(C)C)C(=O)N[C@@H](C)C(=O)N[C@@H](Cc1c[nH]c2ccccc12)C(=O)N[C@@H](CC(C)C)C(=O)N[C@H](C(=O)N[C@@H](CCCNC(=N)N)C(=O)NCC(=O)N[C@@H](CCCNC(=N)N)C(=O)N[C@@H](CCCCNC(=O)COCCOCCNC(=O)COCCOCCNC(=O)CC[C@H](NC(=O)CCCCCCCCCCCCCCCCC(=O)O)C(=O)O)C(=O)NCC(=O)NCC(=O)N[C@@H](CO)C(=O)N[C@@H](CCCCNc1c(NCCCCCN(O)C(=O)CCC(=O)NCCCCCN(O)C(=O)CCC(=O)NCCCCCN(O)C(C)=O)c(=O)c1=O)C(=O)O)C(C)C [zirconium-89 labelled],,,"rat, lung","sc, 3 nmol/kg, 72 h, ex vivo",,tissue uptake,0.85 %ID/g
C[C@]1(CO)Cc2ncn(-c3ccc(C#N)c(Cl)c3)c2C(=O)O1,,,"human, plasma","0.7 mg single dose, geometric mean",,half-life,4.5 h
CC(C)(C(=O)NC1C2CC3CC1CC(C(N)=O)(C3)C2)N1CCN(c2ccc(C(F)(F)F)cn2)CC1 (stereo not shown),,,"human, plasma","2 mg once daily, 5 days, median",,dose-normalised free Cmax,0.159 (ng/mL)/mg
CCc1ccc(CC/C=C/c2ccc3c(c2)C(=O)CC3)cc1,,,"Sprague-Dawley rat, male, blood","oral, 450 mg/kg/day, 14 days",,MCV,60.8 fL
COc1cc2nccc(Oc3ccc(NC(=O)c4cc5c(n(-c6ccccc6)c4=O)CCCC5=O)nc3)c2cc1OC,,,patients with relapsed/refractory AML,"oral, 6 mg once daily",,TEAEs leading to death,0%
O=C(Nc1ccccc1)C1CCN(C(=O)Oc2cccnc2)CC1,,adverse event reporting,healthy women,"oral, 60 mg, 7 days",,subjects with Dysmenorrhoea adverse event,14.3%
CCCCCCCCCCC[C@H](OC1OC[C@H](O)[C@@H](O)[C@@H]1O)[C@H](O)[C@H](O)C[C@@H]1CC(=O)N[C@H](CO)C(=O)N[C@H]([C@H](O)c2ccc(O)cc2)C(=O)N[C@H](CCN)C(=O)NCC(=O)N[C@@H](CC(N)=O)C(=O)N[C@@H](CO)C(=O)N[C@@H]([C@H](O)C(N)=O)C(=O)N1 (stereo partly shown),,LC-MS/MS,rabbit plasma,"200 ng/mL, 6 freeze-thaw cycles",baseline: nominal concentration,"freeze-thaw stability, deviation",-17.6%
COc1cc(Nc2ncc(F)c(Nc3ccc4c(n3)NC(=O)C(C)(C)O4)n2)cc(OC)c1OC,"HTR2B (Homo sapiens, UniProt P41595)",,,,,IC50,> 10 µM
COc1ccc(N2C(=O)N(c3c(C)cccc3Cl)Cc3cnc(Nc4ccc(C5CCN(C)CC5)cc4OC)nc32)nc1,"NEK2 (Homo sapiens, UniProt P51955)",kinase activity,,0.5 µM,,inhibition,20%
Cc1cc(C)c(CNC(=O)c2cc(Cl)c3c(c2C)O[C@@](C)([C@H]2CC[C@H](N(C)C)CC2)O3)c(=O)[nH]1,,,"human, relapsed/refractory NHL","all TEAEs, grade 5",,Coagulopathy incidence,0%
C=CC(=O)Nc1cc(Nc2nccc(Nc3cc(Cl)c(F)cc3C(C)(C)O)n2)c(OC)cc1N1CC[C@@H](N(C)C)C1,,treatment-emergent adverse events,human,"oral, 50 mg, phase I clinical trial",,incidence of vomiting,16.7%
C[C@H]1CN(c2n[nH]c3nc(N[C@H]4CC[C@H](NS(=O)(=O)CCC(F)(F)F)CC4)ncc23)CCO1,"CTP synthase 1 (Homo sapiens, UniProt P17812)","Kinobeads competition, item: CTPS",,"0.032 µM, unit not given",baseline: vehicle,remaining binding,1.04

# Some of these lines once more:
SMILES,tested on,test,system,conditions,scale,endpoint,result
CC(C)(C(=O)NC1C2CC3CC1CC(C(N)=O)(C3)C2)N1CCN(c2ccc(C(F)(F)F)cn2)CC1 (stereo not shown),,,"human, plasma","2 mg once daily, 5 days, median",,dose-normalised free Cmax,0.159 (ng/mL)/mg
COc1cc2nccc(Oc3ccc(NC(=O)c4cc5c(n(-c6ccccc6)c4=O)CCCC5=O)nc3)c2cc1OC,,,patients with relapsed/refractory AML,"oral, 6 mg once daily",,TEAEs leading to death,0%
